Measurements gathered from unrelated publications.
Several values in a cell are separate wells, animals, samples, runs or records. ± gives the spread as reported.

SMILES	assay	system	setting	scale	quantity	value
Cc1cc(O)c(C=O)c2c1C(=O)Oc1c(CO)c(O)c3c(c1O2)C(O)OC3=O (stereo not shown)	copulatory behaviour test	rat, male, streptozotocin-induced diabetes	5 mg/kg, day 63	–	Mount latency	560 ± 29.5 s
CCCCC1NC(=O)c2ccccc21 (racemic)	–	rat cerebral ischaemia-reperfusion, cerebral cortex	50 mg/kg, 24 h after reperfusion	–	NO synthase activity	0.72 U/mg
COc1c2c(cc3oc(COC4OC(CO)C(O)C(O)C4O)cc(=O)c13)OC(C(C)(C)O)C2 (stereo not shown)	analgesic effect	Kunming mouse, female	oral, 2 mg/kg, 0 h, 55 °C, before dosing, 30 s cut-off	–	hot plate latency	8.43 ± 0.62 s
COc1ccc(C2CC(c3ccc(C)cc3)=Nc3ccccc3S2)cc1 (stereo not shown)	–	Wistar rat, STZ-induced diabetes	oral, 20 mg/kg once daily, day 21	–	blood glucose	123 ± 4.7 mg/dL
Cc1[nH]nc2c1N=C(c1ccccc1Cl)c1cnc(N3CCOCC3)cc1N2	immunohistochemistry	HCC1806 xenograft, nude mice, tumour	dose not given	–	CD34+ vascular cells	decreased
CC[C@H]1[C@@H](O)[C@@H]2[C@H](CC[C@]3(C)[C@@H]([C@H](C)CCOS(=O)(=O)[O-])CC[C@@H]23)[C@@]2(C)CC[C@@H](O)C[C@@H]12.[Na+]	–	ob/ob NASH mice, blood	oral, 10 mg/kg once daily, week 8	–	fed blood glucose	7.3 ± 0.3 mmol/L
CC(C)=CCCC(C)=CCc1cc(-c2coc3cc(OC4OC(C(=O)O)C(O)C(O)C4O)ccc3c2=O)ccc1O (stereo not shown)	glucuronidation, substrate	rat liver microsomes	–	–	Vmax	2560 ± 334 pmol/min/mg
CC(C)n1cnc(-c2ccc(F)cc2)c1-c1ncc(C(=O)Nc2ccc(N3CCN(C)CC3)cc2)[nH]1	–	IPF patients	60 mg once daily, 12 weeks, mean	reference: baseline	change in FVC	98.4 mL
C=C(c1ncc(C(=O)O)cn1)c1cc2c(cc1C)C(C)(C)CCC2(C)C	RNA sequencing, item: Cga mRNA	rat, brain	dose not given, 24 h, single dose	reference: vehicle	log2 fold change	2.71
CCCCCCCCCC(=O)N[C@@H](Cc1c[nH]c2ccccc12)C(=O)N[C@H](CC(N)=O)C(=O)N[C@@H](CC(=O)O)C(=O)N[C@@H]1C(=O)NCC(=O)N[C@@H](CCCN)C(=O)N[C@@H](CC(=O)O)C(=O)N[C@H](C)C(=O)N[C@@H](CC(=O)O)C(=O)NCC(=O)N[C@H](CO)C(=O)N[C@@H]([C@H](C)CC(=O)O)C(=O)N[C@@H](CC(=O)c2ccccc2N)C(=O)O[C@@H]1C	membrane leakage	bacterial mimic liposomes	50 µg/mL, 100 min	–	calcein release	44%
CCCOC(=O)Cc1c(C)n(C(=O)c2ccc(Cl)cc2)c2ccc(OC)cc12	hot plate test	BALB/c mice	75 mg/kg, 30 min	–	latency of nociceptive response	17.2 ± 1.71 s
C[C@@H](O)[C@@H]1NC(=O)[C@H](CCCCN)NC(=O)[C@@H](Cc2ccc(NC(N)=O)cc2)NC(=O)[C@H](Cc2ccc(NC(=O)[C@@H]3CC(=O)NC(=O)N3)cc2)NC(=O)[C@H](NC(=O)[C@H](Cc2ccc(Cl)cc2)NC(=O)CN2CCN(CC(=O)O)CCN(CC(=O)O)CCN(CC(=O)O)CC2)CSSC[C@@H](C(=O)N[C@H](Cc2ccc(O)cc2)C(N)=O)NC1=O [gallium-68 labelled]	PET/CT	human neuroendocrine tumour patients, all lesions	60 min	–	SUVmean	10 ± 8
COc1cc2c(cc1OC)C(c1ccc(F)cc1F)N(CCCOc1ccc(CCC(=O)O)cc1)CC2 (stereo not shown)	–	diet-induced obese C57BL/6J mice	oral, 50 mg/kg, 38 days	reference: vehicle	body weight	decreased
COC1CCC(N(C(=O)C2CCC(C)CC2)c2cc(C3=CCCCC3)sc2C(=O)O)CC1 (stereo not shown)	–	Solanum lycopersicum seedlings	10 or 30 µM, no sugar, mannitol medium	–	hypocotyl length	no effect
COC(=O)[C@H](CSSC(C)(C)[C@H](NC(=O)[C@H](CCC(=O)NC[C@H](O)[C@@H](O)[C@H](O)[C@H](O)CO)NC(=O)[C@H](CCC(=O)O)NC(=O)[C@H](CCC(=O)NC[C@H](O)[C@@H](O)[C@H](O)[C@H](O)CO)NC(=O)[C@H](CCC(=O)O)NC(=O)[C@H](CCC(=O)NC[C@H](O)[C@@H](O)[C@H](O)[C@H](O)CO)NC(=O)CC[C@H](NC(=O)c1ccc(NCc2cnc3nc(N)[nH]c(=O)c3n2)cc1)C(=O)O)C(=O)O)NC(=O)CC[C@H](NC(=O)c1ccc(NCc2cnc3nc(N)nc(N)c3n2)cc1)C(=O)O	–	Lewis rat, adjuvant-induced arthritis	500 nmol/kg twice weekly × 2	direction not given	summed histological score decrease	~85%
CCCCCCCCCCCCCCCC(=O)NCCCC[C@H](N)C(=O)N[C@@H](CC(=O)O)C(=O)N[C@H](C(=O)N[C@@H](Cc1c[nH]cn1)C(=O)N[C@@H](Cc1ccccc1)C(=O)N[C@@H](CCCNC(=N)N)C(=O)N[C@H](C(=O)N[C@@H](Cc1ccccc1)C(=O)N[C@@H](CCCNC(=N)N)C(=O)N[C@@H](CO)C(=O)N[C@@H](Cc1c[nH]cn1)C(=O)N[C@@H](CO)C(=O)N[C@@H](CC(=O)O)C(=O)N[C@@H](Cc1ccc(O)cc1)C(=O)N[C@@H](CCCNC(=N)N)C(=O)N[C@@H](CCCNC(=N)N)C(=O)N[C@H](C(=O)O)[C@@H](C)CC)[C@@H](C)O)[C@@H](C)O	–	C57BL/6J mouse, MCD diet	intraperitoneal, 1.2 nmol/g, 3 weeks, 3 times weekly	–	serum AST	151 ± 20.8 IU/L
CC(C)[C@H](NC(=O)CN)C(=O)N[C@@H](CCCCN)C(=O)NCC(=O)N[C@@H](CC(=O)O)C(=O)N[C@@H](CCCCN)C(=O)NCC(=O)N[C@@H](CC(N)=O)C(=O)N1CCC[C@H]1C(=O)NCC(=O)N[C@@H](Cc1c[nH]c2ccccc12)C(=O)N1CCC[C@H]1C(=O)NCC(=O)N[C@@H](C)C(=O)N1CCC[C@H]1C(=O)O	–	UV 2237 fibrosarcoma, mouse	100 µg/mL coating, peptide-coated plates	–	spreading cells	0%
COc1ccc(C2NC(=O)NC(C)=C2C(C)=O)cc1 (stereo not shown)	FRAP	–	–	reference: gallic acid	antioxidant potency ratio	~3.8 fold and ~3.7 fold
COc1ccc2c(c1OC)C(C(Cl)(Cl)Cl)N1CCc3cc4c(cc3C1=C2)OCO4 (stereo not shown)	–	rat, STZ-induced diabetic, serum	oral, 12 mg/kg, day 28	–	LDL cholesterol	43.9 ± 1.87 mg/dL
Cc1cc2c(cc1C1(c3ncc(C(=O)O)cn3)CC1)C(C)(C)CCC2(C)C	RNA sequencing, item: Cyp26a1 mRNA	rat, brain	dose not given, 24 h, single dose	reference: vehicle	log2 fold change	0.002

SMILES	assay	system	setting	scale	quantity	value
CCCCCCCOC(=O)Cc1c(C)n(C(=O)c2ccc(Cl)cc2)c2ccc(OC)cc12	hot plate test	BALB/c mice	50 mg/kg, 120 min	–	latency of nociceptive response	14.9 ± 0.52 s
O=C(O)C1OC(Oc2cccc(-c3nc(N4CCOCC4)c4oc5ncccc5c4n3)c2)C(O)C(O)C1O (stereo not shown)	glucuronide formation	minipig liver microsomes	–	–	Vmax	373 ± 10.8 pmol/min/mg
COc1cc(Cn2ccc3cc(C(=O)NCC45CC6CC(CC(C6)C4)C5)ccc32)ccc1C(=O)NO	immunohistochemistry	5xFAD mouse, brain	intraperitoneal, 10 mg/kg once daily, 2 months	reference: vehicle	GFAP-positive area	decreased
CC(C)OC(=O)[C@H](CO)NCc1cc(Cl)c(OCc2cccc(-c3ccccc3)c2Br)cc1OCc1cccnc1	flow cytometry	humanized PD-1 C57BL/6 mice, hPD-L1 MC-38 tumour, tumour	dose not given	–	tumour-infiltrating CD4+ and CD8+ T cells	increased
CCOC(=O)c1cc2c(N)c(C(=O)OC)sc2nc1C	–	Sprague-Dawley rats	subcutaneous, dose not given	reference: vehicle	urine non-urea solute concentration	no effect
CSCCNc1nc(SCCC(F)(F)F)nc2c1ncn2[C@@H]1O[C@H](COP(=O)(O)OP(=O)(O)C(Cl)(Cl)P(=O)(O)O)[C@@H](O)[C@H]1O	ADP-induced platelet aggregation, LTA, >59% aggregation	human patients, platelet-rich plasma	dose not given, 1 h, added: ADP 20 µM	–	patients with high reactivity	55%
CN(C)C(=O)c1ccnc(N2Cc3cn(Cc4ccc(F)cc4F)nc3C2)n1	EAE clinical score	mouse EAE model	oral, 5 mg/kg daily from day 11, 264 h, unit not given	reference: vehicle	effect size d	-2.08
CCc1nc(-c2ccc(-c3ccc(CCC(N)(CO)CO)cc3)cc2)co1	phosphorylation	rat whole blood	60 min, 37 °C, up to 100 µM	–	Vmax	20.1 ± 3.6 pmol/min
C#CC[C@H](N)C(=O)O	L-cysteine-induced relaxation	rat, isolated aortic rings	added: phenylephrine precontraction	–	inhibitory concentration	5 mM
Cc1nc(C)c(C=[N+]([O-])C(C)(C)C)nc1C	Western blot, item: Nrf2	mouse, MPTP model, substantia nigra nuclei	10 mg/kg	–	protein level increase	36.5%
C[C@H](NC(=O)COC(=O)[C@H](C)NC(=O)CO)C(=O)O	–	water	pH 4, 50 °C	–	depolymerization rate constant	0.027 h⁻¹
O=C([O-])CN1CCN(CC(=O)[O-])CCN(CC(=O)NC[C@H]2CC[C@H](C(=O)N[C@H](Cc3cnc4ccccc4c3)C(=O)NCCCC[C@H](NC(=O)N[C@@H](CCC(=O)O)C(=O)O)C(=O)O)CC2)CCN(CC(=O)[O-])CC1.[64Cu+2]	item: prostate cancer	prostate cancer patients, biopsy cores	cut-off 66 CPM	–	specificity	93.7%
COC(=O)N1c2ccc3c(nc(Cc4ccccc4)n3[C@@H]3CCC[C@@H](C(=O)O)C3)c2CC[C@@H]1C	–	mice, breast cancer PDX	oral, 50 mg/kg, 45 days, HER2+, TGI above 60%	–	responding models	31%
O=c1[nH]c2ccccc2n1CCCCCN1CCN(c2ccc(F)cc2)CC1	tail immersion test	mouse	subcutaneous, 5 mg/kg	–	duration of antinociceptive effect	> 70 min
CN(C)c1cc2ccccc2c(N)n1	–	ICR mouse, CCl4 liver fibrosis	intraperitoneal, 1 and 3 mg/kg daily	–	serum ALT	decreased
COc1c2c(cc3oc(C)cc(=O)c13)O[C@H](C(C)(C)O[C@@H]1O[C@H](CO)[C@@H](O)[C@H](O)[C@H]1O)C2	analgesia	mouse	oral, 4 mg/kg, 1 h	–	hot plate latency	8.63 ± 2.53 s
O=C(Nc1ccc(C(F)(F)F)cc1Cl)c1cc(Cl)ccc1O	–	mice LuCaP sample A PDX, serum	oral, 150 mg/kg	–	PSA level	decreased
CC(=O)[O-].O.O.O.O.[Ni+2].[O-]c1ccc(Br)cc1C=NCCN1CCOCC1	FRAP	–	240 µM	–	ferric reducing power	58.5%
COc1ccc(C2CC(c3ccc(C)cc3)=Nc3ccccc3S2)cc1OC (stereo not shown)	–	rat, normal, overnight fasted	oral, 10 mg/kg, 60 min, oral glucose tolerance test, added: glucose 3 g/kg oral	–	blood glucose	113 ± 5.03 mg/dL
CCCCCCCCCn1cc(C(N)(CO)CO)nn1	–	APP/PS1 mouse	dose not given	reference: PBS	proinflammatory mRNA levels	decreased

Repeated from above:
SMILES	assay	system	setting	scale	quantity	value
COc1cc2c(cc1OC)C(c1ccc(F)cc1F)N(CCCOc1ccc(CCC(=O)O)cc1)CC2 (stereo not shown)	–	diet-induced obese C57BL/6J mice	oral, 50 mg/kg, 38 days	reference: vehicle	body weight	decreased
COC1CCC(N(C(=O)C2CCC(C)CC2)c2cc(C3=CCCCC3)sc2C(=O)O)CC1 (stereo not shown)	–	Solanum lycopersicum seedlings	10 or 30 µM, no sugar, mannitol medium	–	hypocotyl length	no effect
COC(=O)[C@H](CSSC(C)(C)[C@H](NC(=O)[C@H](CCC(=O)NC[C@H](O)[C@@H](O)[C@H](O)[C@H](O)CO)NC(=O)[C@H](CCC(=O)O)NC(=O)[C@H](CCC(=O)NC[C@H](O)[C@@H](O)[C@H](O)[C@H](O)CO)NC(=O)[C@H](CCC(=O)O)NC(=O)[C@H](CCC(=O)NC[C@H](O)[C@@H](O)[C@H](O)[C@H](O)CO)NC(=O)CC[C@H](NC(=O)c1ccc(NCc2cnc3nc(N)[nH]c(=O)c3n2)cc1)C(=O)O)C(=O)O)NC(=O)CC[C@H](NC(=O)c1ccc(NCc2cnc3nc(N)nc(N)c3n2)cc1)C(=O)O	–	Lewis rat, adjuvant-induced arthritis	500 nmol/kg twice weekly × 2	direction not given	summed histological score decrease	~85%
CCCCCCCCCCCCCCCC(=O)NCCCC[C@H](N)C(=O)N[C@@H](CC(=O)O)C(=O)N[C@H](C(=O)N[C@@H](Cc1c[nH]cn1)C(=O)N[C@@H](Cc1ccccc1)C(=O)N[C@@H](CCCNC(=N)N)C(=O)N[C@H](C(=O)N[C@@H](Cc1ccccc1)C(=O)N[C@@H](CCCNC(=N)N)C(=O)N[C@@H](CO)C(=O)N[C@@H](Cc1c[nH]cn1)C(=O)N[C@@H](CO)C(=O)N[C@@H](CC(=O)O)C(=O)N[C@@H](Cc1ccc(O)cc1)C(=O)N[C@@H](CCCNC(=N)N)C(=O)N[C@@H](CCCNC(=N)N)C(=O)N[C@H](C(=O)O)[C@@H](C)CC)[C@@H](C)O)[C@@H](C)O	–	C57BL/6J mouse, MCD diet	intraperitoneal, 1.2 nmol/g, 3 weeks, 3 times weekly	–	serum AST	151 ± 20.8 IU/L
CC(C)[C@H](NC(=O)CN)C(=O)N[C@@H](CCCCN)C(=O)NCC(=O)N[C@@H](CC(=O)O)C(=O)N[C@@H](CCCCN)C(=O)NCC(=O)N[C@@H](CC(N)=O)C(=O)N1CCC[C@H]1C(=O)NCC(=O)N[C@@H](Cc1c[nH]c2ccccc12)C(=O)N1CCC[C@H]1C(=O)NCC(=O)N[C@@H](C)C(=O)N1CCC[C@H]1C(=O)O	–	UV 2237 fibrosarcoma, mouse	100 µg/mL coating, peptide-coated plates	–	spreading cells	0%
